# Assay results gathered from unrelated publications.
# Compare with care: the assays were run in different laboratories. Several values in a cell are separate wells, animals, samples, runs or records. Numbers after ± are the reported error.
# DRD3: D(3) dopamine receptor (DRD3, Homo sapiens, UniProt P35462)
# Chain of UniProt P35462 (whole entry, looked up): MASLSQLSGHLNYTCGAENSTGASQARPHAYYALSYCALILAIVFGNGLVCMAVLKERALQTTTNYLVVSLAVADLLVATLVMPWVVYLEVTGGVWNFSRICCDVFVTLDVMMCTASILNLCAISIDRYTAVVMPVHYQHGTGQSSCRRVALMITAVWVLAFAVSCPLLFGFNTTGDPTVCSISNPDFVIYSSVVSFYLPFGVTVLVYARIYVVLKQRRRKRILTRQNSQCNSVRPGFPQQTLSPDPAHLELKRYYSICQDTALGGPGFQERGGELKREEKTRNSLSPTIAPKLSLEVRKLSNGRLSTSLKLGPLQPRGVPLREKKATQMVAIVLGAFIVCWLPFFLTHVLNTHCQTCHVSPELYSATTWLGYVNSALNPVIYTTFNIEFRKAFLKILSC
SMILES,tested on,assay,system,setting,scale,measurement,value
CO[C@@H]1[C@H](OC(=O)N2CC(CCN3CCOCC3)C2)CC[C@]2(CO2)[C@H]1[C@@]1(C)O[C@@H]1CC=C(C)C,,,humans,"subcutaneous, 0.6 mg twice weekly for 4 weeks, day 28",relative to: baseline,D-dimer,-0.03 ± 0.08 mg/dL
N=C(N)NCCNC(=O)C1(Nc2ccccc2)CCN(Cc2ccccc2)CC1,,,"male Sprague-Dawley rats, plasma","oral, 50 mg/kg",,half-life,6 min
CC(C)Oc1c(NC(=O)c2ccc(NC(=O)[C@H](CC(N)=O)NC(=O)c3cc(F)c(/N=N/c4c(F)cccc4F)c(F)c3)cc2)ccc(C(=O)N/N=C/c2ccc(C(=O)O)s2)c1O,,absorbance,DMSO,"45 °C, PSS to ground state relaxation",,thermal half-life,1.1 h
CC(C)(C(=O)N1CCOc2c(C#N)cncc2C1)C(F)F,,measured: Restlessness,human,"oral, 20 mg twice daily, 14 days, multiple ascending dose",,subjects with adverse event,12.5%
COc1ccccc1NC(=O)CSc1nnc(-c2ccc(F)cc2)n1C,"Cyclin-dependent kinase 2 (CDK2, Homo sapiens, UniProt P24941)",binding,,,,Kd,> 100 µM
CCC(=O)N(CCC(c1ccc2c(c1)OCO2)c1ccccc1OC)Cc1ccccc1 (stereo not shown),,,"female athymic nude mouse, blood","i.p., 60 mg/kg twice daily, 14 days, group mean",,ALT,53.2 U/L
Cn1cc(-c2ccc(-c3cncc(Cl)c3N3CCC4(CCNC4=O)CC3)cc2)cn1,COLO 205,"gene expression, microarray, measured: CFL2 mRNA",,"concentration not given, 2 h",relative to: untreated cells,log2 fold change,-2.26
CNC(=O)c1cc(Oc2ccc(NC(=O)Nc3cc(C(C)(C)C)nn3-c3ccc4ncccc4c3)c(F)c2)ccn1,,measured: worst grade 1,human,"oral, dose not given, cycles 1 and 2, High AUC(0-4 h) subgroup",,patients with nervous system disorder AE,33%
N#Cc1ccc2c(c1)[C@H]1CCCN(C(=O)c3ccc4[nH]cnc4c3)[C@H]1C2,,,human,"40 mg, day 15",,maximum ACTH level,17.4 pmol/L
Nc1nnc(-c2cccc(Cl)c2Cl)c(N)n1,,,"human, plasma","15 µg/mL, outliers excluded",relative to: baseline,QRS interval decrease,5.58 ms
CCc1cc(C(=O)NC)c2nccc(N3CCc4c(cc(Cn5ccnc5)cc4-c4cn(C)nc4C(F)(F)F)C3=O)c2c1,,,Sprague Dawley rats,"oral, 100 mg/kg once daily, 7 days",,mean corpuscular volume,67.2 ± 1.05 fL
C[C@H]1CN(C(=O)CC#N)[C@]12CCN(c1ncnc3[nH]ccc13)C2,,,healthy human,"oral, 12 mg single",,subjects with Nausea,0%
Cc1c(-c2ccc(N3CCc4cccc(C(=O)Nc5nc6ccccc6s5)c4C3)nc2C(=O)O)cnn1CC12CC3(C)CC(C)(C1)CC(OCCNCC[C@H](O)CO)(C3)C2,,,anaesthetized male beagle dog,"iv infusion, 0.3 mg/kg/min, 75 min",,plasma concentration,4.58 ng/mL and 1.18 ng/mL
CC(C)(C)c1ccc(O)c(CN(Cc2cc(C(C)(C)C)ccc2O)C2CCC(NC(N)=O)CC2)c1 (stereo not shown),,,"C57BL/6 mice, male, plasma","intraperitoneal, 5 mg/kg, single dose",,dose-normalised Cmax,228 ng/mL per mg/kg
Cc1ccc(Sc2ccccc2N2CCNCC2)c(C)c1,,measured: Headache,healthy adult men,"oral, 10 mg single dose",,participants with TEAE,0%
NS(=O)(=O)c1cc(C(=O)O)c(NCc2ccco2)cc1Cl,,measured: thirst,healthy men,"oral, 8 days, treatment-emergent, crossover trial",,subjects with adverse event,0%
Cn1cc(Nc2nccc(-c3ccc4c(c3)CN(C3COC3)CC[C@H]4NC(=O)c3cn(C(C)(C)C)nn3)n2)cn1,,,"human, whole blood","150 mg twice daily, day 7",relative to: pre-dose baseline,transitional B cell count change,83.2%
Cc1cc(-c2nccc3c2ccn3CC(=O)Nc2ccc(-c3cnccn3)cn2)ccn1,,,human,"20 mg once daily, multiple ascending dose",,nervous system disorders,44.4%
COc1ccccc1OCCNCC(O)COc1cccc2[nH]c3ccccc3c12 (stereo not shown),,,0.2% w/v mucin,8 h,,steady-state concentration,~140 µg/mL
O=C(Nc1nc2cccc(-c3ccc(CN4CCS(=O)(=O)CC4)cc3)n2n1)C1CC1,,measured: gastrointestinal pain,human rheumatoid arthritis patients,"oral, 75 mg once daily, 4 weeks, regardless of relatedness",,treatment-emergent adverse events,0%
Cc1cc(NC2CCN(C(=O)OC3CCN(C(=O)/C=C/CN(C)C)C3)CC2)n2ncc(C(C)C)c2n1 (stereo not shown),,"CTCAE v4.0, measured: Dyspepsia",patients with advanced solid tumours,"oral, dose not given, TIW, grade 3 or higher",,patients with TEAE,0%
O=C(N[C@H](Cc1c[nH]c2ccccc12)C(=O)Nc1ccncc1)c1ccc(N2CCN(c3ccc(F)c(F)c3)CC2)cc1F,,,"Swiss Webster mouse, female, plasma","oral, 50 mg/kg, 2 h, 20% HPβCD vehicle",,concentration,110 nM
O=C(Nc1cnccc1Cl)N1CCN(Cc2ccc3c(c2)OC(F)(F)O3)CC1,,,"young women, plasma","oral, 100 mg once daily, day 10, normalized to 10 mg",,dose-normalized Cmax,94.9 ng/mL
C=CC(=O)Nc1cc(Nc2nccc(-c3cn(C4CC4)c4ccccc34)n2)c(OC)cc1N(C)CCN(C)C,,,"BALB/c nude mouse, LU0387 xenograft, blood","oral, 40 mg/kg",,MCV,45.72 ± 0.323 fL
NC(CO)(CO)CCc1ccc(Sc2cccc(OCc3ccccc3)c2)cc1Cl,,,"human, supine","oral, 3 mg, 0 to 24 h, added: cyclosporin 100 mg",,"pulse rate AUEC, mean",1310 h×bpm
Cc1cc(C)c(S(=O)(=O)NCc2ccccn2)cc1C,"Cyclin-dependent kinase 2, with cyclin A (CDK2, Homo sapiens, UniProt P24941)",,,,,Kd,> 100 µM
O=C(CCCCCCC(=O)Nc1ccc(CC[18F])cc1)NO,,,"athymic nu/nu male mice, LNCaP xenograft, large intestine","intravenous, 2 h",,tissue uptake,5.1 ± 1.8 %ID/g
CCN1/C(=C/C(C)=O)Sc2ccc(F)cc21,,,cynomolgus monkey,"oral, 10 mg/kg, 1 h post-dose",relative to: pre-dose,mean blood pressure change,102 ± 8.1%
C[Si]1(C)O[Si](C)(C)O[Si](C)(C)O[Si](C)(C)O[Si](C)(C)O1,,,,,,"slope B, log KAW vs 1/T",-6470
C=CC(=O)NC1CCN(c2ncc3ncnc(Nc4ccc(Oc5ccc6c(c5)ncn6C)c(C)c4)c3n2)CC1,,shake flask,simulated gastric fluid,"24 h, pH 1.2, 37 °C",,aqueous solubility,> 1000 µg/mL
Cl.[2H]C([2H])([2H])CC(=O)c1cnc(NC(=O)C2CC2)cc1Nc1cccc(-c2ncn(C([2H])([2H])[2H])n2)c1OC,,geometric mean,human,"oral, 40 mg twice daily, day 1, fed, liquid, multiple dose",,AUC(0-tau),2090 ng·h/mL
N#CCNC(=O)c1ccc(-c2ccnc(Nc3ccc(N4CCOCC4)cc3)n2)cc1,,,"healthy human volunteers, plasma","oral, dose not given, added: single-dose rifampin",relative to: compound alone,AUC0-last ratio,158%
COc1ncc(-c2nc3c(n2C(C)C)[C@H](c2ccc(Cl)cc2)N(c2cc(Cl)cn(C)c2=O)C3=O)c(OC)n1,,,"human patients, plasma","oral, 4 mg, low-dose arm, cycle 1 day 8",,median Tmax,2 h
Cc1ccc(N(C)C(=O)/C=C/c2ccco2)cc1,,hot plate test,mice,"oral, 30 mg/kg daily for 7 days, 15 min, day 8",,licking latency,15.2 ± 0.6 s
NC1(C(=O)N[C@@H](CCO)c2ccc(Cl)cc2)CCN(c2nc[nH]c3nccc2-3)CC1,,,metastatic CRPC patients,"400 mg b.i.d., grade 3 to 4, treatment-related, added: enzalutamide 160 mg daily",,incidence of Fatigue,0%
CNCc1ccc(-c2[nH]c3cc(F)cc4c3c2CCNC4=O)cc1,,,patients,"oral, 360 mg twice daily, all grades",,cough incidence,0%
O=C(O)CCCOc1ccc([18F])cc1-c1cc(-c2ccccc2C(F)(F)F)n(-c2ccccc2)n1,,gamma counting,"male ddY mice, pancreas","intravenous, 2.1 MBq, 1 min",,radioactivity uptake,0.85 ± 0.68 SUV
COc1cc(C(F)(F)F)c(Cl)cc1NS(=O)(=O)c1c(C)[nH]c(C)c1C(=O)N1CCC(F)(F)C1,DRD3,"Go activation, antagonist, BRET",,added: dopamine,,IC50,> 100 µM
C[C@@H](O)[C@@H](CO)NC(=O)[C@@H](CCCNC(=N)N)NC(=O)[C@@H]1CCCN1C(=O)[C@@H]1CSSC[C@H](NC(=O)[C@H](Cc2ccccc2)NC(=O)CN2CCN(CC(=O)O)CCN(CC(=O)O)CCN(CC(=O)O)CC2)C(=O)N[C@@H](Cc2ccc(O)cc2)C(=O)N[C@@H](Cc2ccccc2)C(=O)N[C@@H](CCC(N)=O)C(=O)N[C@@H](CC(N)=O)C(=O)N1 [gallium-68 labelled],,,normal saline,"0 h, room temperature",,radiochemical purity,> 99%
O=C1NCCc2nc(OCc3cccc(F)c3)ccc21,,measured: Salivation,Sprague-Dawley rat male,"oral, 100 mg/kg, 0 min","relative to: baseline, direction not given",Irwin test score,0
O=C(c1cccnc1-c1ccncc1)N1CCC(O)(Cc2ccccc2)CC1,,,"healthy Japanese adults, plasma","oral, 100 mg twice daily, day 7",,AUCtau/dose,2.24 ng·h/mL/mg
C[C@H](CCC(=O)NCC(=O)O)[C@H]1CC[C@H]2[C@@H]3[C@H](O)C[C@@H]4C[C@H](O[C@@H]5O[C@H](C(=O)O)[C@@H](O)[C@H](O)[C@H]5O)CC[C@]4(C)[C@H]3CC[C@]12C,,,"human, plasma",endogenous baseline diurnal,relative to: daily mean concentration,relative peak deviation,87.4 ± 14.4%
Cc1ccc(NS(=O)(=O)c2c(C)[nH]c(C)c2C(=O)N2CCC(F)(F)C2)nc1Br,DRD3,"Go activation, antagonist, BRET",,added: dopamine,,IC50,> 100 µM
COc1ccc([C@@H](O)c2cc(-c3ncnc4cc(N5CCOCC5)ccc34)c(F)cc2Cl)nn1,,measured: Nausea,locally advanced rectal cancer patients,"dose not given, all dose groups, added: capecitabine plus radiotherapy",,patients with TEAE,47%
O=C(O)CCC(=O)O.[2H]C([2H])([2H])Oc1cc(C)c2[nH]ccc2c1CN1CC[C@@H](C2CC2)C[C@H]1c1ccc(C(=O)O)cc1,,"LC-MS/MS, geometric mean","human, plasma","400 mg, single dose, fasting",,Cmax,4510 ng/mL
Cc1ccc(C)c(OCCCC(C)(C)C(=O)O)c1,,,"human, plasma","oral, dose not given, day 14 predose, geometric mean",,trough plasma concentration,1680 ng/mL

# Repeated from above:
SMILES,tested on,assay,system,setting,scale,measurement,value
COc1ccc([C@@H](O)c2cc(-c3ncnc4cc(N5CCOCC5)ccc34)c(F)cc2Cl)nn1,,measured: Nausea,locally advanced rectal cancer patients,"dose not given, all dose groups, added: capecitabine plus radiotherapy",,patients with TEAE,47%
O=C(O)CCC(=O)O.[2H]C([2H])([2H])Oc1cc(C)c2[nH]ccc2c1CN1CC[C@@H](C2CC2)C[C@H]1c1ccc(C(=O)O)cc1,,"LC-MS/MS, geometric mean","human, plasma","400 mg, single dose, fasting",,Cmax,4510 ng/mL
Cc1ccc(C)c(OCCCC(C)(C)C(=O)O)c1,,,"human, plasma","oral, dose not given, day 14 predose, geometric mean",,trough plasma concentration,1680 ng/mL
